# Earlier results that unrelated publications cite.
# Compare with care: the assays were run in different laboratories. ± marks the error that the study gave.
# Organism: Plasmodium falciparum
Compound,test,test system,setting,endpoint,value
COc1ccc2nc3cc(Cl)ccc3c(NCCN3CCN(C)CC3)c2c1,,,gametocytes,IC50,1880 nM
O=C(O)[C@@H]1Cc2c([nH]c3ccccc23)[C@@H](c2ccc(Cl)cc2)N1,parasite growth,Dd2,,IC50,1170 ± 60 nM
COc1cc(O)c(-c2ccc(OC)c3c(O)cc(C)c(-c4cc(-c5c(O)cc(OC)c6c5C[C@H](C)N(C)[C@@H]6C)c5cc(C)cc(OC)c5c4O)c23)c2c1[C@@H](C)N(C)[C@H](C)C2,,K1,,IC50,4 nM
CC(C)C(C(=O)N[C@@H](Cc1ccccc1)[C@H](O)CN1CCN(Cc2ccc(Br)cc2)CC1)N1C(=O)c2ccccc2C1=O (stereo partly drawn),parasite growth,3D7,48 h,IC50,1250 nM
CCN(CC)S(=O)(=O)c1cc(/C=C/C(=O)Nc2cc(N3CCOCC3)ccc2Cl)ccc1C,,3D7,,EC50,1000 nM
CCCCCC(=O)N[C@H](CC(=O)N(CC)CC)C(=O)N[C@@H](Cc1ccc(F)cc1)C(=O)N[C@@H](Cc1ccc(F)cc1F)C(=O)[C@@]1(C)CO1,parasite killing,,,IC50,9.2 ± 1.8 nM
O=C1c2ccccc2-[n+]2ccc3c([nH]c4ccccc43)c21,parasite growth,K1,,IC50,168 nM
CNC(=O)[C@@H]1Cc2c([nH]c3ccccc23)[C@@H](c2ccc(Cl)cc2Cl)N1,parasite growth,Dd2,,IC50,190 ± 30 nM
O=c1c(NCCCN(Cc2ccc(F)cc2)c2ccccn2)c(NCc2cccnc2)c1=O,parasite development,Dd2,2 µM,inhibition,> 90%
COC(=O)C1=CO[C@@H](C)[C@@H]2Cn3ccc4c5ccccc5nc-4c3C[C@H]12,,W2,72 h,IC50,109 nM
O=C(/C=C/c1ccc(Cl)c(Cl)c1)N1CCC(CCN2CCC(c3c[nH]c4cnccc34)CC2)CC1,,,gametocytes,IC50,200 nM
O=C1C(O)=C([C@H]2CC[C@H](c3ccc(Cl)cc3)CC2)C(=O)c2ccccc21,,,,IC50,1 nM

# A few entries again:
Compound,test,test system,setting,endpoint,value
O=c1c(NCCCN(Cc2ccc(F)cc2)c2ccccn2)c(NCc2cccnc2)c1=O,parasite development,Dd2,2 µM,inhibition,> 90%
